Measurements from different studies.
Each line is one published result; not all experiments were run side by side. Numbers after ± are the reported error.

CC(=O)O[C@@H]1CC[C@@]2(C)C(CC[C@]3(C)C2C(=O)C=C2C4[C@@H](C)[C@H](C)CC[C@]4(C)CC[C@]23C)[C@@]1(C)C(=O)OCC(=O)Oc1cc(C)ccc1C(C)C (stereo partly shown)
inhibition (HepG2; TNF-α production, ELISA, refers to: TNF-α; 10 µM, together with: acetaminophen 10 mM; baseline: acetaminophen-treated cells): ~56%

CCNC(=S)N/N=C(\C)c1ccccn1
inhibition (HEp-2; cell growth or viability, SRB; 100 µg/mL, 48 h): 69.5%

COc1cc(/C=C/C(=O)/C=C(O)/C=C/c2ccc(OCC(=O)N3CCOCCOCCOCCOCC3)c(OC)c2)ccc1OCC(=O)N1CCOCCOCCOCCOCC1
inhibition (U-251; cell growth or viability, SRB; 5 µM): 21.4%

COc1ccc2c(c1)/C(=N\Nc1nnc3n1N=C(c1ccccc1)CS3)C(=O)N2
inhibition (M14; cell growth or viability, SRB; 10 µM): 29%

O=C(COc1ccc(/C=N/Nc2nc(-c3ccc(Br)cc3)cs2)cc1)N1CCN(C(=O)COc2ccc(/C=N/Nc3nc(-c4ccc(Br)cc4)cs3)cc2)CC1
inhibition (HDF; cell growth or viability, SRB; 100 µM, 48 h): 58.4%

COc1cc(Cc2c[nH]c3ncc(C(F)(F)F)cc23)cc(OC)c1
inhibition (4T1; cell migration; 30 µM, 24 h): 93.8%

CCC12CCc3c(c4ccccc4n3C)CCN(CC3OC31)C2 (stereo not shown)
inhibition (BV-2; NO production; 25 µM, 1 h, 24 h stimulation, together with: LPS 800 ng/mL; baseline: LPS control): 73.8 ± 0.1%

C/C(=N\N=c1/[nH]c(-c2ccccc2)cs1)c1ccccn1
inhibition (HEp-2; cell growth or viability, SRB; 100 µg/mL, 48 h): 64.3%

O=C(COc1ccccc1/C=N/Nc1nc(-c2ccc(Cl)cc2)cs1)N1CCN(C(=O)COc2ccccc2/C=N/Nc2nc(-c3ccc(Cl)cc3)cs2)CC1
inhibition (HDF; cell growth or viability, SRB; 100 µM, 48 h): 66.9%

O=C(c1ccc(Oc2ccc(C3CCCCC3)cc2)c([N+](=O)[O-])c1)C(Cl)Cl
inhibition (NCI-H1975; cell growth or viability, MTT; 2.5 µM): > 95%

CC(C)(C)c1ccc(-c2ccc(S(=O)(=O)N(CCC(F)(F)F)c3ccc(C(=O)NCCC(=O)O)cc3)cc2)cc1
inhibition (mouse primary hepatocytes; glucose production; 20 µM, gluconeogenic substrates, together with: glucagon 10 nM): 72%

CC(C)C[C@H](NC(=O)[C@H](CO)NC(=O)[C@H](CCCNC(=N)N)NC(=O)[C@H](CCCCN)NC(=O)[C@@H](NC(=O)[C@@H](NC(=O)CNC(=O)[C@H](CCCNC(=N)N)NC(=O)[C@H](Cc1c[nH]cn1)NC(=O)[C@H](Cc1c[nH]c2ccccc12)NC(=O)[C@H](Cc1ccccc1)NC(=O)[C@H](Cc1c[nH]cn1)NC(=O)[C@H](Cc1ccc(O)cc1)NC(=O)[C@@H](N)Cc1ccc(O)cc1)C(C)C)[C@@H](C)O)C(=O)N[C@@H](CO)C(=O)N1CCC[C@H]1C(=O)N[C@@H](Cc1c[nH]cn1)C(=O)N[C@@H](CCCNC(=N)N)C(=O)N1CCC[C@H]1C(=O)N[C@@H](CCCNC(=N)N)C(=O)N[C@@H](Cc1c[nH]cn1)C(=O)N[C@@H](CO)C(=O)N[C@@H](CCCNC(=N)N)C(=O)O
inhibition (THP-1; TNF-α secretion, ELISA; 5 µM, 4 to 12 h, together with: LPS): 28%

Cc1nc2ccc(Cc3c[nH]c4ncc(C(F)(F)F)cc34)cc2o1
inhibition (4T1; cell growth or viability, MTT; 10 µM, 72 h): 23%

A few entries again:
O=C(c1ccc(Oc2ccc(C3CCCCC3)cc2)c([N+](=O)[O-])c1)C(Cl)Cl
inhibition (NCI-H1975; cell growth or viability, MTT; 2.5 µM): > 95%

CC(C)C[C@H](NC(=O)[C@H](CO)NC(=O)[C@H](CCCNC(=N)N)NC(=O)[C@H](CCCCN)NC(=O)[C@@H](NC(=O)[C@@H](NC(=O)CNC(=O)[C@H](CCCNC(=N)N)NC(=O)[C@H](Cc1c[nH]cn1)NC(=O)[C@H](Cc1c[nH]c2ccccc12)NC(=O)[C@H](Cc1ccccc1)NC(=O)[C@H](Cc1c[nH]cn1)NC(=O)[C@H](Cc1ccc(O)cc1)NC(=O)[C@@H](N)Cc1ccc(O)cc1)C(C)C)[C@@H](C)O)C(=O)N[C@@H](CO)C(=O)N1CCC[C@H]1C(=O)N[C@@H](Cc1c[nH]cn1)C(=O)N[C@@H](CCCNC(=N)N)C(=O)N1CCC[C@H]1C(=O)N[C@@H](CCCNC(=N)N)C(=O)N[C@@H](Cc1c[nH]cn1)C(=O)N[C@@H](CO)C(=O)N[C@@H](CCCNC(=N)N)C(=O)O
inhibition (THP-1; TNF-α secretion, ELISA; 5 µM, 4 to 12 h, together with: LPS): 28%
